Results pooled from the literature.
“And” joins repeats or separate records; there may be more than shown. Numbers after ± are the reported error.
GLP1R: Glucagon-like peptide 1 receptor (GLP1R, Homo sapiens, UniProt P43220)
T1: riboswitch RNA yjdF aptamer, L4 replaced by GAAA (Bacillus subtilis); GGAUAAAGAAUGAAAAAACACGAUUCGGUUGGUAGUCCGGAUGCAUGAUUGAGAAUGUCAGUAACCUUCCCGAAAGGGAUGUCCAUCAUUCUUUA

`Nc1ncc2c(n1)-c1c([nH]c3ccc(C#CC4CC4)cc13)CCCC2` gave a remaining binding of 81% (Phosphatidylinositol 5-phosphate 4-kinase type-2 gamma (PIP4K2C, Homo sapiens, UniProt Q8TBX8); DiscoverX scanMAX; 1 µM; baseline: control).
For `[H]/N=C(/N)NCC(=O)O`, “normalised MST signal” read 0.0175 (Sodium- and chloride-dependent taurine transporter (SLC6A6, Homo sapiens, UniProt P31641, G62A); binding, microscale thermophoresis; 61 nM, room temperature, added: 50 nM labelled protein; higher = more binding).
`N#Cc1ccc2[nH]cc(CCCCN3CCN(c4ccc5oc(C(N)=O)cc5c4)CC3)c2c1` gave a Hill coefficient of 1.39 ± 0.1 (Sodium-dependent serotonin transporter (SLC6A4, Homo sapiens, UniProt P31645); [3H]5-HT uptake, inhibitor; HEK293).
For `O=C(COP(=O)(O)O)[C@@H](O)[C@H](O)[C@H](O)COP(=O)(O)O`, “thermal stability ratio” read 0.636 (Importin subunit alpha-1 (Homo sapiens, UniProt P52292); thermal proteome profiling, refers to: KPNA2; HepG2 cell lysate; concentration not given, 57 over 37 °C, mean; baseline: compound over control).
`Cc1cc2nc3[nH]c(=O)[nH]c(=O)c3nc2cc1C` has a Kd of 0.03 µM (T1, riboswitch RNA yjdF aptamer, L4 replaced by GAAA (Bacillus subtilis); fluorescence titration; added: 380 nM lumichrome).
For `O=c1nc(SCc2cc(F)cc(C(F)(F)F)c2)nc(SCc2ccc3nc(Cl)ccc3c2)[nH]1`, “ATP hydrolysis rate” read 0.788 µM/min and 0.778 µM/min (DNA topoisomerase 2-alpha (TOP2A, Homo sapiens, UniProt P11388); ATPase activity; 15.6 µM, added: ATP 0.1 mM).
`CC[C@H](C)[C@H](NC(=O)[C@H](Cc1ccccc1)NC(=O)[C@H](CCC(=O)O)NC(=O)[C@H](CCCNC(=N)N)NC(=O)[C@H](C)NC(=O)[C@H](C)NC(=O)[C@H](CCC(N)=O)NC(=O)[C@H](CCC(=O)O)NC(=O)[C@H](CCC(=O)O)NC(=O)[C@H](CC(C)C)NC(=O)[C@H](Cc1ccc(O)cc1)NC(=O)[C@H](CO)NC(=O)[C@H](CO)NC(=O)[C@@H](NC(=O)[C@H](CC(=O)O)NC(=O)[C@H](CO)NC(=O)[C@@H](NC(=O)[C@H](Cc1ccccc1)NC(=O)[C@@H](NC(=O)CNC(=O)[C@H](CCC(=O)O)NC(=O)[C@H](C)NC(=O)CCc1cnc[nH]1)[C@@H](C)O)[C@@H](C)O)C(C)C)C(=O)N[C@@H](C)C(=O)N[C@@H](Cc1c[nH]c2ccccc12)C(=O)N[C@@H](CC(C)C)C(=O)N[C@H](C(=O)N[C@@H](CCCNC(=N)N)C(=O)NCC(=O)N[C@@H](CCCNC(=N)N)C(=O)N[C@@H](CCCCNC(=O)COCCOCCNC(=O)COCCOCCNC(=O)CC[C@H](NC(=O)CCCCCCCCCCCCCCCCC(=O)O)C(=O)O)C(=O)NCC(=O)NCC(=O)N[C@@H](CO)C(=O)N[C@@H](CCCCNC(=O)[C@H](CCCCNC(=O)[C@H](CCCCNc1c(NCCCCCN(O)C(=O)CCC(=O)NCCCCCN(O)C(=O)CCC(=O)NCCCCCN(O)C(C)=O)c(=O)c1=O)Nc1c(NCCCCCN(O)C(=O)CCC(=O)NCCCCCN(O)C(=O)CCC(=O)NCCCCCN(O)C(C)=O)c(=O)c1=O)NC(=O)[C@H](CCCCNc1c(NCCCCCN(O)C(=O)CCC(=O)NCCCCCN(O)C(=O)CCC(=O)NCCCCCN(O)C(C)=O)c(=O)c1=O)Nc1c(NCCCCCN(O)C(=O)CCC(=O)NCCCCCN(O)C(=O)CCC(=O)NCCCCCN(O)C(C)=O)c(=O)c1=O)C(=O)O)C(C)C` — result for “fold potency loss”: 12.1 (GLP1R; agonist, CRE luciferase reporter; BHK cells; metal-free DFO conjugate, added: 0% HSA; baseline: parent peptide).
Under “Stern-Volmer quenching constant”, `CC1=C[C@H](O)CC(C)(C)[C@H]1/C=C/C(C)=C/C=C/C(C)=C/C=C/C=C(C)/C=C/C=C(C)/C=C/C1=C(C)C[C@@H](O)CC1(C)C` is recorded as 32500 ± 6500 L/mol (Beta-lactoglobulin (LGB, Bos taurus, UniProt P02754); fluorescence quenching; 303 K).
Under “ΔH of binding”, `Nc1ncnc2c1ncn2[C@@H]1O[C@H](CO[P@](=O)(O)O[P@](=O)(O)O[P@@](=O)(O)S)[C@@H](O)[C@H]1O` is recorded as -17.3 kJ/mol and -15.8 kJ/mol and -16.1 kJ/mol (GUK1 (Homo sapiens, UniProt Q16774); ITC; concentration not given, added: ADP).
`CC(=O)N[C@H](C(=O)N1C[C@H](O)C[C@H]1C(=O)NCc1ccc(-c2scnc2C)cc1)C(C)(C)SCCCCCCNC(=O)C[C@@H]1N=C(c2ccc(Cl)cc2)c2c(sc(C)c2C)-n2c(C)nnc21` has a cooperativity of 7 (BRD2/VHL, BD1; with VCB (Homo sapiens, UniProt P25440+P40337, K107A/Q101K/V106E); ITC; 25 °C, added: BRD2 BD1; baseline: binary Kd over ternary Kd).
The Bmax of `CC1(C)CN(CCCCC(=O)N[C@H](Cc2ccccc2)C(=O)N[C@H](Cc2ccccc2)C(=O)N[C@@H](CCCCNC(=O)CCCCCCC(=O)NCCCC[C@H](NC(=O)N[C@@H](CCC(=O)O)C(=O)O)C(=O)O)C(=O)O)CC[N]2CC(C)(C)[S][Tc]2(=[O])[S]1` (some centres unmarked) [technetium-99m labelled] is reported as 4.7 µmol/mg (Glutamate carboxypeptidase 2 (FOLH1, Homo sapiens, UniProt Q04609); saturation binding; LNCaP).
The selectivity ratio of `COc1cc(/C=C2\SC(=O)NC2=O)cc(F)c1OCCNc1nc2c(cnn2C2CCCC2)c(=O)[nH]1` is reported as 232 fold (3',5'-cyclic-AMP phosphodiesterase 4D (PDE4D, Homo sapiens, UniProt Q08499); baseline: PDE4D over PDE9).
With `CC(C)C[C@@H]1NC(=O)CNC(=O)[C@H](CC(C)C)NC(=O)[C@@H]2CCCN2C(=O)[C@H](CC(=O)O)NC(=O)[C@H](Cc2ccc(O)cc2)NC(=O)CNC(=O)[C@@H](Cc2ccc(O)cc2)NC(=O)CSC[C@@H](C(N)=O)NC(=O)[C@H](C)NC(=O)[C@H](Cc2ccccc2)NC(=O)[C@H](Cc2ccc(O)cc2)NC(=O)[C@H](CCCCN)NC1=O` the ΔH was -72.8 ± 5.86 kJ/mol (Vacuolar protein sorting-associated protein 29 (VPS29, Homo sapiens, UniProt Q9UBQ0); binding, ITC; 25 °C, protein alone).
With `NCC[C@H](O)C(=O)N[C@@H]1C[C@H](N)[C@@H](O[C@H]2O[C@H](CN)[C@@H](O)[C@H](O)[C@H]2O)[C@H](O)[C@H]1O[C@H]1O[C@H](CO)[C@@H](O)[C@H](N)[C@H]1O` the ΔG° was -24.8 kJ/mol (Albumin (ALB, Bos taurus, UniProt P02769); binding, tryptophan fluorescence quenching; pH 7.4, 289 K).
The remaining activity of `COc1cc(Nc2ncc3c(n2)-c2ccc(Cl)cc2C(c2c(F)cccc2OC)=NC3)ccc1C(=O)O` is reported as 87% (PDGFRA D842V; kinase activity; 1 µM).
`C#Cc1cc(-c2cc(Nc3nc(N[C@@H](C)c4ccc(F)cn4)ncc3Cl)n[nH]2)ccc1C=O` gave an inhibition of 10.5% (Ephrin type-B receptor 1 (EPHB1, Homo sapiens, UniProt P54762); enzyme activity, inhibitor; 0.2 µM).
The kcat of `Nc1ncnc2c1ncn2[C@@H]1O[C@H](COP(=O)(O)OP(=O)(O)O)[C@@H](O)[C@H]1O` is reported as 0.006 ± 0.0005 s⁻¹ (Creatine kinase U-type, mitochondrial (CKMT1A, Homo sapiens, UniProt P12532, E265D); substrate, Kinase-Glo luminescence; pH 7.0, reverse reaction, E227D mutant, added: second substrate in excess).
For `CC(=O)N[C@H]1[C@H]([C@H](O)[C@H](O)CO)OC(O[C@H]2[C@@H](O)[C@@H](CO)O[C@@H](Oc3ccc([N+](=O)[O-])cc3)[C@@H]2O)(C(=O)O)C[C@@H]1O` (some centres unmarked), the Vmax was 0.0013 ± 0.0001 mM/s (Sialidase-2 (Homo sapiens, UniProt Q9Y3R4); substrate; 10 min, pH 5.0, 37 °C).
For `CC[C@H](C)[C@H](NC(=O)[C@H](Cc1ccccc1)NC(=O)[C@H](CCC(=O)O)NC(=O)[C@H](CCCNC(=N)N)NC(=O)[C@H](C)NC(=O)[C@H](C)NC(=O)[C@H](CCC(N)=O)NC(=O)[C@H](CCC(=O)O)NC(=O)[C@H](CCC(=O)O)NC(=O)[C@H](CC(C)C)NC(=O)[C@H](Cc1ccc(O)cc1)NC(=O)[C@H](CO)NC(=O)[C@H](CO)NC(=O)[C@@H](NC(=O)[C@H](CC(=O)O)NC(=O)[C@H](CO)NC(=O)[C@@H](NC(=O)[C@H](Cc1ccccc1)NC(=O)[C@@H](NC(=O)CNC(=O)[C@H](CCC(=O)O)NC(=O)[C@H](C)NC(=O)CCc1cnc[nH]1)[C@@H](C)O)[C@@H](C)O)C(C)C)C(=O)N[C@@H](C)C(=O)N[C@@H](Cc1c[nH]c2ccccc12)C(=O)N[C@@H](CC(C)C)C(=O)N[C@H](C(=O)N[C@@H](CCCNC(=N)N)C(=O)NCC(=O)N[C@@H](CCCNC(=N)N)C(=O)N[C@@H](CCCCNC(=O)COCCOCCNC(=O)COCCOCCNC(=O)CC[C@H](NC(=O)CCCCCCCCCCCCCCCCC(=O)O)C(=O)O)C(=O)NCC(=O)NCC(=O)N[C@@H](CO)C(=O)N[C@@H](CCSC)C(=O)N[C@H](C(=O)N[C@@H](CCCCNc1c(NCCCCCN(O)C(=O)CCC(=O)NCCCCCN(O)C(=O)CCC(=O)NCCCCCN(O)C(C)=O)c(=O)c1=O)C(=O)O)C(C)C)C(C)C`, “fold potency loss” read 1.2 (GLP1R; agonist, CRE luciferase reporter; BHK cells; Zr-loaded DFO conjugate, added: 1% HSA; baseline: parent peptide).
For `C[C@H](CCC(C)(C)O)[C@H]1CC[C@H]2[C@@H]3CC=C4C[C@@](C)(O)CC[C@]4(C)[C@H]3CC[C@]12C`, “potentiation by MTSEA” read 1080 ± 55% (Glutamate NMDA receptor; GRIN1/GRIN2B (GRIN1/GRIN2B, Homo sapiens, UniProt Q05586+Q13224, A652C); two-electrode voltage clamp; Xenopus oocytes; concentration not given, with PAM, holding -40 mV, added: 200 µM MTSEA, 100 µM glutamate).
For `CC[C@H](C)[C@H](NC(=O)[C@H](Cc1ccccc1)NC(=O)[C@H](CCC(=O)O)NC(=O)[C@H](CCCNC(=N)N)NC(=O)[C@H](C)NC(=O)[C@H](C)NC(=O)[C@H](CCC(N)=O)NC(=O)[C@H](CCCCNc1c(NCCCCCN(O)C(=O)CCC(=O)NCCCCCN(O)C(=O)CCC(=O)NCCCCCN(O)C(C)=O)c(=O)c1=O)NC(=O)[C@H](CCC(=O)O)NC(=O)[C@H](CC(C)C)NC(=O)[C@H](Cc1ccc(O)cc1)NC(=O)[C@H](CO)NC(=O)[C@H](CO)NC(=O)[C@@H](NC(=O)[C@H](CC(=O)O)NC(=O)[C@H](CO)NC(=O)[C@@H](NC(=O)[C@H](Cc1ccccc1)NC(=O)[C@@H](NC(=O)CNC(=O)[C@H](CCC(=O)O)NC(=O)[C@H](C)NC(=O)CCc1cnc[nH]1)[C@@H](C)O)[C@@H](C)O)C(C)C)C(=O)N[C@@H](C)C(=O)N[C@@H](Cc1c[nH]c2ccccc12)C(=O)N[C@@H](CC(C)C)C(=O)N[C@H](C(=O)N[C@@H](CCCCNc1c(NCCCCCN(O)C(=O)CCC(=O)NCCCCCN(O)C(=O)CCC(=O)NCCCCCN(O)C(C)=O)c(=O)c1=O)C(=O)NCC(=O)N[C@@H](CCCNC(=N)N)C(=O)N[C@@H](CCCCNC(=O)COCCOCCNC(=O)COCCOCCNC(=O)CC[C@H](NC(=O)CCCCCCCCCCCCCCCCC(=O)O)C(=O)O)C(=O)O)C(C)C`, “fold potency loss” read 5.8 (GLP1R; agonist, CRE luciferase reporter; BHK cells; Zr-loaded DFO conjugate, added: 0% HSA; baseline: parent peptide).
`CC1(C)CC2(C)OC(=O)NC2(C)c2ccccc21` (centres unmarked) has a fold enrichment of 0.788 (Transcription intermediary factor 1-alpha, PHD-bromodomain (TRIM24, Homo sapiens, UniProt O15164); binding, affinity selection mass spectrometry; baseline: other proteins in batch).
Under “LDL lipid peroxidation”, `NC/C(=C\F)COc1cccc(Cn2c(=S)[nH]c(=O)c3[nH]cnc32)c1` is recorded as 1.69% and 16.4% and 8.14% and 2.22% (Myeloperoxidase (MPO, Homo sapiens, UniProt P05164); inhibitor, cholesteryl ester hydroperoxide; 0.5 µM; baseline: control).
`O=C(COP(=O)(O)O)[C@@H](O)[C@H](O)[C@H](O)COP(=O)(O)O` — result for “concentration reversing inhibition completely”: 571 ± 132 nM (Pyruvate kinase PKM (PKM, Homo sapiens, UniProt P14618); pyruvate kinase activity, activator; SK-HEP1 cell lysate; added: AIM).
For `CNc1ccc(-c2nc3ccc(O)cc3s2)cc1`, the inhibition was 87% and 78.8% (Amyloid-beta precursor protein, amyloid-beta (APP, Homo sapiens, UniProt P05067); binding, competition binding; amyloid-beta aggregates; 33.33 nM, added: tritiated amyloid ligand).
The ΔTm of `COc1cc(Cl)c(C(=O)N[C@@H](CN[C@H]2CC[C@@H](N)CC2)Cc2ccc(C#N)cc2)cc1-c1ccc(CN[C@H](C)c2ccc(C)cc2)o1` is reported as 11.4 °C (ATPase family AAA domain-containing protein 2, bromodomain (ATAD2, Homo sapiens, UniProt Q6PL18); thermal shift; 25 µM, untagged protein).
